Published values from different studies.
A part holds a random share of what one study measured. “And” joins repeats or separate records; there may be more than shown.
Chain of UniProt P29322 (whole entry, looked up): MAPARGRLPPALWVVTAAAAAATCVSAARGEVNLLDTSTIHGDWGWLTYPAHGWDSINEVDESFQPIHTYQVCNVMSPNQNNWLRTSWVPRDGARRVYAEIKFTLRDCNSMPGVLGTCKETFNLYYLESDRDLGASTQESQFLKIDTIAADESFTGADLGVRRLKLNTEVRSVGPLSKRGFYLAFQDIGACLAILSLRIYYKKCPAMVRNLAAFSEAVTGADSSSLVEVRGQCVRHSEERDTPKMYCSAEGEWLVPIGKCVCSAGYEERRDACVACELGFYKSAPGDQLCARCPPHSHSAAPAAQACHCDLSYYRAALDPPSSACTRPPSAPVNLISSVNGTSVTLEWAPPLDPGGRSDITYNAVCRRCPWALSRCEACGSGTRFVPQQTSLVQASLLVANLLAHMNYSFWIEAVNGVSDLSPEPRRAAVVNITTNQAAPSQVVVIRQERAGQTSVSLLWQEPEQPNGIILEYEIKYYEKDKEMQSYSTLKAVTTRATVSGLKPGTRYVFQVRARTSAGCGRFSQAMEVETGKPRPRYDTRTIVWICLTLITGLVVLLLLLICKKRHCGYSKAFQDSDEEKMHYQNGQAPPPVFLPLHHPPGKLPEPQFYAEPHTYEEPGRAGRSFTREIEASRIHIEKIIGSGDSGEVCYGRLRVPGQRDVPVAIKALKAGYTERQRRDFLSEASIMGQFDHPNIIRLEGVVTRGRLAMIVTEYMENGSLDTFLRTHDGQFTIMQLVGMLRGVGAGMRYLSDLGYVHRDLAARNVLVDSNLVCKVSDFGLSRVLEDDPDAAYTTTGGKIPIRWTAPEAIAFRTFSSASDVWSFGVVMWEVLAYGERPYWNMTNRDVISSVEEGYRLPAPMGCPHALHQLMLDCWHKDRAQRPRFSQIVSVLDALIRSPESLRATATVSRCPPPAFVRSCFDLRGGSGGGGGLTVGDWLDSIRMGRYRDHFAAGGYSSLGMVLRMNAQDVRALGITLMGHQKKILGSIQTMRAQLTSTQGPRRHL
Chain of UniProt P53350 (whole entry, looked up): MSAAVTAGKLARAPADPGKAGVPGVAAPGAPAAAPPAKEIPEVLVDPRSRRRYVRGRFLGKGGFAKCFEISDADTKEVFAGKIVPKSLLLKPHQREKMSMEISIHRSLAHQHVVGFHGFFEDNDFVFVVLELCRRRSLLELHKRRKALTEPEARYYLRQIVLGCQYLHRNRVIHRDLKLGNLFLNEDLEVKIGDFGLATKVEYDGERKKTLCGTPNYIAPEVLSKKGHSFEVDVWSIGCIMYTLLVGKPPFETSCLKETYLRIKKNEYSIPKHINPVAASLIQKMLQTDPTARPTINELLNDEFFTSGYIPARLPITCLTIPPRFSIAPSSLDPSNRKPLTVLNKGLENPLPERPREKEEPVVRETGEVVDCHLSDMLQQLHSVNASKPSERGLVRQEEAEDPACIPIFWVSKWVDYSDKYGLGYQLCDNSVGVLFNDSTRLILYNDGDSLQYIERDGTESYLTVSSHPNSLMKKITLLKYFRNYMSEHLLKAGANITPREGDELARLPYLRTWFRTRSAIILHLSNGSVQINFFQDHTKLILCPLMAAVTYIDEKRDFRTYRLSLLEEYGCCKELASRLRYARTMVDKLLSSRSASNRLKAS
Chain of UniProt P42336 (whole entry, unmodified, looked up): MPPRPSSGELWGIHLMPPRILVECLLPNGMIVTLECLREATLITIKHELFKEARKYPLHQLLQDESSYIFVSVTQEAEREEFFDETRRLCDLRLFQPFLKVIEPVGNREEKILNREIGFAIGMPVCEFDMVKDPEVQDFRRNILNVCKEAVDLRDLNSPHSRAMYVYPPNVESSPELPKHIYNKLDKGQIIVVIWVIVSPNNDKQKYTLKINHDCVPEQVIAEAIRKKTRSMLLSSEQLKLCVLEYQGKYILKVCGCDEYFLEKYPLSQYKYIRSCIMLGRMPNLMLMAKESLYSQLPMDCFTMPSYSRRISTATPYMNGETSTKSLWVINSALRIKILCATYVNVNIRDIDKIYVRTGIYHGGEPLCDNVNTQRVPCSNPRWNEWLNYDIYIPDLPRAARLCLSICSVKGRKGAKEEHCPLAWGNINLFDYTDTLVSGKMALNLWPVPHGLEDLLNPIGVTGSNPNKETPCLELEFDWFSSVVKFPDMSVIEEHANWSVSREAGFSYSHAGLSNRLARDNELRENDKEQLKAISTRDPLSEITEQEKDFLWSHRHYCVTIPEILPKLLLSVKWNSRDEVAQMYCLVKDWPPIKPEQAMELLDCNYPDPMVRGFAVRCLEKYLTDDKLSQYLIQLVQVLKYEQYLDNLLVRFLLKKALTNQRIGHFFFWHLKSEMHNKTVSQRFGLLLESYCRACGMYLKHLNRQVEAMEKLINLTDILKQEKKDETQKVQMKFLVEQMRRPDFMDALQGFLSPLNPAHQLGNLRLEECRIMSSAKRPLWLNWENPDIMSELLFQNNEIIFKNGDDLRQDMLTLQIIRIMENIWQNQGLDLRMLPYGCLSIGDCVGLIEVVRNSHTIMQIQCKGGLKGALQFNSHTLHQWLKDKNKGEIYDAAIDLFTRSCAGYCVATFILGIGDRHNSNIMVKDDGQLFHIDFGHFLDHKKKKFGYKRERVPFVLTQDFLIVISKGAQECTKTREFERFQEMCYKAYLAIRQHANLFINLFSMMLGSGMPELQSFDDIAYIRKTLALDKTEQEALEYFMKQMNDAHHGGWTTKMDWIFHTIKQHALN
Chain of UniProt P11362 (whole entry, looked up): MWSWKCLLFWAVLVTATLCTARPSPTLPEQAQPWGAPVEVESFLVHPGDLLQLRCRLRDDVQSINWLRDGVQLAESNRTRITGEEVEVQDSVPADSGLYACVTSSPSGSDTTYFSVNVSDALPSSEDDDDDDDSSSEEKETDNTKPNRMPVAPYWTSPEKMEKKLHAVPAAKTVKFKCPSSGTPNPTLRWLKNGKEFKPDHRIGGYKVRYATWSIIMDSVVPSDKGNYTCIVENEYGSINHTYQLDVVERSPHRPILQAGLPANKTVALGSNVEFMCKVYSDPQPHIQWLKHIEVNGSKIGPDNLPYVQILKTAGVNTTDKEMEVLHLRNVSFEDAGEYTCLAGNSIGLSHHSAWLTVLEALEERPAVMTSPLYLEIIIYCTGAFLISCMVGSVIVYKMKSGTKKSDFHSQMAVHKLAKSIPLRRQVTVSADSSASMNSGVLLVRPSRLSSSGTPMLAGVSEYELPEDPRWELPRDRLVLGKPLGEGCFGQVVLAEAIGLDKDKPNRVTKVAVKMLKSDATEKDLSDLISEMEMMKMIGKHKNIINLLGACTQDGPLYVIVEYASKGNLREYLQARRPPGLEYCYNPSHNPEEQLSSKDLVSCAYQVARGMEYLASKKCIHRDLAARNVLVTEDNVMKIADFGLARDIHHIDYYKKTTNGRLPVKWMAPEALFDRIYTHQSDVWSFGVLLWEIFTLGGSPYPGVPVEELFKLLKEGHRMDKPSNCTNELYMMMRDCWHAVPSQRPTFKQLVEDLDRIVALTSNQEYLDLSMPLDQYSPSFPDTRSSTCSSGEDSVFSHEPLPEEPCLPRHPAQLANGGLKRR
Chain of UniProt Q6PHR2 (whole entry, looked up): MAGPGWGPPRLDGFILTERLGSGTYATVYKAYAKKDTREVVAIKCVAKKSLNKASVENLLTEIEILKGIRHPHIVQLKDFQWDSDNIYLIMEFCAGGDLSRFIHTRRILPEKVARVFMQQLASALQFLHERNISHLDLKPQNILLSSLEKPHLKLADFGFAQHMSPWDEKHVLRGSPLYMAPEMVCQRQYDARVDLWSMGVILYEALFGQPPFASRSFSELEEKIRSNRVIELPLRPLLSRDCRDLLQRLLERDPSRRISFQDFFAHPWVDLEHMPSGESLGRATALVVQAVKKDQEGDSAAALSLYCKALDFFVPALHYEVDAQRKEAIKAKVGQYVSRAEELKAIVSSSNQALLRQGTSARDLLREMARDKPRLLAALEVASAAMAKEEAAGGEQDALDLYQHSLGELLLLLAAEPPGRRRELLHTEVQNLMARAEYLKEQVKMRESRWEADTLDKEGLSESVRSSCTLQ

Sample 1 — read-out: enzyme activity; mode: inhibitor; concentration: 10 µM; measurement: inhibition
Target: Calcium/calmodulin-dependent protein kinase type II subunit alpha (CAMK2A, Homo sapiens, UniProt Q9UQM7)
Chain of UniProt Q9UQM7 (whole entry, looked up): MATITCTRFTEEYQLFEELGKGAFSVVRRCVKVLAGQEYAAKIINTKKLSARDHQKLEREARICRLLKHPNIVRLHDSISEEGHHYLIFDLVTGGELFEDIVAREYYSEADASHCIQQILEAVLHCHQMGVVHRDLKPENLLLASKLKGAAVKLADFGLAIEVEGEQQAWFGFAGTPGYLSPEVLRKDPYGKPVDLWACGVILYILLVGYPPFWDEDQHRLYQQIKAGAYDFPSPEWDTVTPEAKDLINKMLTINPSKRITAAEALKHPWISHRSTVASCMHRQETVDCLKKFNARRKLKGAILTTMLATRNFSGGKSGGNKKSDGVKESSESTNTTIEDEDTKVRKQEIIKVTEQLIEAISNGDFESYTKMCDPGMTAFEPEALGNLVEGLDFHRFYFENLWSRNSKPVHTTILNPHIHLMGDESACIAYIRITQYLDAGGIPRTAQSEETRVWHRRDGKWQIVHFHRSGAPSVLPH
SMILES = Cc1ncc([N+](=O)[O-])n1C[C@H](O)CCl; value = -4%
SMILES = COc1cc(C)c2c(Oc3cccc(C(F)(F)F)c3)c(OC)cc(NC(C)CCCN)c2n1 (stereo not shown); value = 0%
SMILES = CCc1ccc(Cc2ccc3c(c2)[C@]2(OC3)O[C@H](CO)[C@@H](O)[C@H](O)[C@H]2O)cc1; value = -8%
SMILES = CO[C@H]1C[C@H](O[C@H]2[C@H](C)O[C@@H](O[C@@H]3/C(C)=C/C[C@@H]4C[C@@H](C[C@]5(C=C[C@H](C)[C@@H](C6CCCCC6)O5)O4)OC(=O)[C@@H]4C=C(C)[C@@H](O)[C@H]5OC/C(=C\C=C\[C@@H]3C)[C@]54O)C[C@@H]2OC)O[C@@H](C)[C@@H]1O; value = -8%
SMILES = CC[C@@H](C(=O)[C@@H](C)[C@@H](O)[C@H](C)CCc1ccc(C)c(O)c1C(=O)O)[C@H]1O[C@](CC)([C@H]2CC[C@](O)(CC)[C@H](C)O2)C[C@@H]1C; value = 30%
SMILES = C[C@@H]1O[C@@H](OC[C@H]2O[C@@H](Oc3c(-c4ccc(O)cc4)oc4cc(O[C@@H]5O[C@@H](C)[C@H](O)[C@@H](O)[C@H]5O)cc(O)c4c3=O)[C@H](O)[C@@H](O)[C@H]2O)[C@H](O)[C@H](O)[C@H]1O; value = -10%

Sample 2 — read-out: cell-free assay; technique: competition with immobilised ligand; concentration: 1 µM; measurement: remaining binding
Structure (SMILES): CCC(=O)N[C@H]1CC[C@@H](C(=O)N(C)c2ccc(-c3nc4ccccc4o3)cc2)C1
target = MAP3K2 (Homo sapiens, UniProt Q9Y2U5); value = 87%
target = MAP2K5 (Homo sapiens, UniProt Q13163); value = 16%
target = CDK18 (Homo sapiens, UniProt Q07002); value = 100%
target = CHEK2 (Homo sapiens, UniProt O96017); value = 100%
target = EPHA8 (Homo sapiens, UniProt P29322); value = 96%
target = Ribosomal protein S6 kinase alpha-3, N-terminal kinase domain (RPS6KA3, Homo sapiens, UniProt P51812); value = 88%
target = EGFR (Homo sapiens, UniProt P00533, L861Q); value = 100%
target = Ribosomal protein S6 kinase alpha-6, N-terminal kinase domain (RPS6KA6, Homo sapiens, UniProt Q9UK32); value = 82%
target = CDK7 (Homo sapiens, UniProt P50613); value = 79%
target = EGFR (Homo sapiens, UniProt P00533, T790M); value = 87%
target = Tyrosine-protein kinase ABL1, non-phosphorylated (ABL1, Homo sapiens, UniProt P00519, T315I); value = 86%
target = Tyrosine-protein kinase ABL1, phosphorylated (ABL1, Homo sapiens, UniProt P00519, H396P); value = 88%
target = MYLK3 (Homo sapiens, UniProt Q32MK0); value = 97%
target = FGFR1 (Homo sapiens, UniProt P11362); value = 100%
target = Non-receptor tyrosine-protein kinase TYK2, JH1 (TYK2, Homo sapiens, UniProt P29597); value = 83%
target = ULK3 (Homo sapiens, UniProt Q6PHR2); value = 67%
target = PLK1 (Homo sapiens, UniProt P53350); value = 97%
target = RPS6KB1 (Homo sapiens, UniProt P23443); value = 99%
target = KIT (Homo sapiens, UniProt P10721, V559D/V654A); value = 89%
target = PIK3CA (Homo sapiens, UniProt P42336, Q546K); value = 91%
target = EGFR (Homo sapiens, UniProt P00533, A750P/del747-749); value = 97%
target = SNRK (Homo sapiens, UniProt Q9NRH2); value = 100%
target = CAMK2B (Homo sapiens, UniProt Q13554); value = 94%
target = CDKL2 (Homo sapiens, UniProt Q92772); value = 100%
target = FLT3 (Homo sapiens, UniProt P36888, D835V); value = 73%

Sample 3 — read-out: RNA clamping; technique: fluorescence polarization; concentration: concentration not given; added: FAM-labelled poly r(AG)8 RNA; measurement: fluorescence polarization change
Target: Eukaryotic initiation factor 4A-III (Homo sapiens, UniProt P38919)
Chain of UniProt P38919 (whole entry, looked up): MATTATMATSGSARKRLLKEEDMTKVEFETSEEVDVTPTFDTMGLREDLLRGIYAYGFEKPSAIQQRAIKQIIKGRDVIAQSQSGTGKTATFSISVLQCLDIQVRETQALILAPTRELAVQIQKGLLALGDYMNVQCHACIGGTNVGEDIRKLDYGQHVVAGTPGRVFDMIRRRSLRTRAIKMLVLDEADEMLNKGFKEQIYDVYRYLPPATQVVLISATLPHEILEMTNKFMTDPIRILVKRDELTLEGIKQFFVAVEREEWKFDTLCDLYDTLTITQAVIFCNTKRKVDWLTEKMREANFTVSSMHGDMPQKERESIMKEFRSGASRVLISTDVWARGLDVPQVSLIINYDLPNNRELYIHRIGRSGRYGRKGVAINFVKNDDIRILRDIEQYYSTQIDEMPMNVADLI
SMILES = COC(=O)C1=C(OS(=O)(=O)c2ccc(C)cc2)[C@@]2(O)c3c(OC)cc(OC)cc3O[C@@]2(c2ccc(OC)cc2)[C@@H]1c1ccccc1; value = -0.8 mP
SMILES = COc1ccc([C@@]23Oc4cc(OC)cc(OC)c4[C@]2(O)c2nc(-c4ccccn4)[nH]c(=O)c2[C@H]3c2ccccc2)cc1; value = 12.1 mP
SMILES = COc1ccc([C@@]23Oc4cc(OC)cc(OC)c4[C@]2(OC)c2nc(-c4ccccc4)n(C)c(=O)c2[C@H]3c2ccccc2)cc1; value = 0.5 mP
SMILES = COC(=O)[C@H]1C(=O)[C@@]2(NCCN3CCOCC3)c3c(OC)cc(OC)cc3O[C@@]2(c2ccc(OC)cc2)[C@@H]1c1ccccc1; value = 13.7 mP
SMILES = CCOC(=O)COc1nc(-c2ccccc2)nc2c1[C@@H](c1ccccc1)[C@]1(c3ccc(OC)cc3)Oc3cc(OC)cc(OC)c3[C@]21OCC(=O)OCC; value = 5.6 mP
SMILES = COc1ccc([C@@]23Oc4cc(OC)cc(OC)c4[C@]2(O)c2nc(N4CCOCC4)[nH]c(=O)c2[C@H]3c2ccccc2)cc1; value = 33.7 mP and 33 mP
SMILES = COC(=O)[C@H]1C(=O)[C@@]2(NCCCC(OC)OC)c3c(OC)cc(OC)cc3O[C@@]2(c2ccc(OC)cc2)[C@@H]1c1ccccc1; value = 11.3 mP
SMILES = COc1ccc([C@@]23Oc4cc(OC)cc(OC)c4[C@]2(O)C2=C(C(=O)N4CCC[C@@]4(C)N2)[C@H]3c2ccccc2)cc1; value = 5 mP

Sample 4 — organism: Sarcocystis neurona; read-out: parasite growth; concentration: 10 µM; time: 96 h; setting: first screen; measurement: inhibition
SMILES = Cc1ncc([N+](=O)[O-])n1CCO; value = -0.0223%
SMILES = CCCCC(=O)O[C@]1(C(=O)CO)CC[C@H]2[C@@H]3CCC4=CC(=O)CC[C@]4(C)[C@H]3[C@@H](O)C[C@@]21C; value = -2.1%
SMILES = Cc1ccsc1C(=CCCN1CCC[C@@H](C(=O)O)C1)c1sccc1C; value = -6%
SMILES = CC[C@H](C)C(=O)O[C@H]1C[C@H](O)C=C2C=C[C@H](C)[C@H](CC[C@@H](O)C[C@@H](O)CC(=O)O)[C@H]21; value = 3.6%
SMILES = Cc1ccc(Cl)c(Nc2ccccc2C(=O)O)c1Cl; value = -4.4%
SMILES = CCCCN1CCCC1CNC(=O)c1cc(C#N)c2ccccc2c1OC (stereo not shown); value = 17.1%
SMILES = O=c1cnn([C@@H]2O[C@H](CO)[C@@H](O)[C@H]2O)c(=O)[nH]1; value = -15.5%
SMILES = CCN(CC)CCOC(=O)c1ccc(N)cc1; value = -22.7%
SMILES = C[C@]12C=CC(=O)C=C1CC[C@@H]1[C@@H]2C(=O)C[C@@]2(C)[C@H]1CC[C@]2(O)C(=O)CO; value = -18.9%
SMILES = COCCCC/C(=N\OCCN)c1ccc(C(F)(F)F)cc1; value = 16.3%
SMILES = C=CC1=C(C(=O)O)N2C(=O)[C@@H](NC(=O)/C(=N\OCC(=O)O)c3csc(N)n3)[C@H]2SC1; value = -14.6%
SMILES = CN1CCN(CCCN2c3ccccc3Sc3ccc(C(F)(F)F)cc32)CC1; value = 13.6%

Sample 5 — measurement: inhibition
SMILES: COc1cc(C(=O)N2CCC(N3CCN(C)CC3)CC2)ccc1Nc1ncc2c(n1)N(C)c1ccccc1C(=O)N2C
target or system = RSKL1 domain 1 (mouse); test = probe labelling, inhibitor, KiNativ ActivX ATP probe; system = mouse brain lysate; conditions = 0.1 µM, kinase domain peptide; value = -5.6%
target or system = AKT1 and AKT3 mouse; test = KiNativ profiling; system = mouse brain lysate; conditions = 0.1 µM, LYS1 site, added: ADP acyl phosphate probe; value = -13.1%
target or system = eEF2K (mouse); test = probe labelling, inhibitor, KiNativ ActivX ATP probe; system = mouse brain lysate; conditions = 0.1 µM, ATP loop peptide YIkYNSNSGFVR; value = -5.7%
target or system = RSK3 domain 2 (mouse); test = probe labelling, inhibitor, KiNativ ActivX ADP probe; system = mouse brain lysate; conditions = 1 µM, Lys1 site peptide; value = 18.3%
target or system = CDK9 (mouse); test = probe labelling, KiNativ, measured: DMkAANVLITR peptide, LYS2 site; system = brain tissue lysate (mouse); conditions = 0.1 µM, added: ADP acyl-phosphate probe; value = 21.9%
target or system = human PBMC; test = probe labeling, inhibitor, KiNativ profiling, measured: DLkPQNLLINR; system = cell lysate; conditions = concentration not given, LYS2 site, added: ATP acyl-phosphate probe; value = -8.9%
target or system = PKD2 human; test = KiNativ profiling; system = human PBMC; conditions = 0.1 µM, LYS1 site, added: ATP acyl phosphate probe; value = 10.5%

Some of these lines once more (sample 4):
SMILES = CCCCN1CCCC1CNC(=O)c1cc(C#N)c2ccccc2c1OC (stereo not shown); value = 17.1%
SMILES = CCN(CC)CCOC(=O)c1ccc(N)cc1; value = -22.7%
SMILES = C=CC1=C(C(=O)O)N2C(=O)[C@@H](NC(=O)/C(=N\OCC(=O)O)c3csc(N)n3)[C@H]2SC1; value = -14.6%
SMILES = O=c1cnn([C@@H]2O[C@H](CO)[C@@H](O)[C@H]2O)c(=O)[nH]1; value = -15.5%
SMILES = COCCCC/C(=N\OCCN)c1ccc(C(F)(F)F)cc1; value = 16.3%
SMILES = CN1CCN(CCCN2c3ccccc3Sc3ccc(C(F)(F)F)cc32)CC1; value = 13.6%
SMILES = Cc1ccsc1C(=CCCN1CCC[C@@H](C(=O)O)C1)c1sccc1C; value = -6%
SMILES = CC[C@H](C)C(=O)O[C@H]1C[C@H](O)C=C2C=C[C@H](C)[C@H](CC[C@@H](O)C[C@@H](O)CC(=O)O)[C@H]21; value = 3.6%
SMILES = Cc1ccc(Cl)c(Nc2ccccc2C(=O)O)c1Cl; value = -4.4%
